Measurements from different studies.
Lines come from different studies, so protocols differ.
HLA class I histocompatibility antigen, A alpha chain allele A*33:03: HLA class I histocompatibility antigen, A alpha chain, allele A*33:03 (Homo sapiens, UniProt P04439)
CCR1: C-C chemokine receptor type 1 (CCR1, Homo sapiens, UniProt P32246)
Ywhag: 14-3-3 protein gamma (Ywhag, Mus musculus, UniProt P61982)

`TEYKLVVVGAV`: “HLA class I surface increase” 0.3% (HLA class I histocompatibility antigen, A alpha chain allele A*33:03; MHC class I stabilisation, flow cytometry; peptide, TAP2-knockout TISI monoallelic cells; 25 µM, 18 h, 37 °C, with: β2-microglobulin 3 µg/mL; reference: DMSO).
For `GSGAGRETEV`, the binding intensity was 0.974 (human SCRIB PDZ3-4 tandem (MBP fusion); automated holdup; peptide, crude extract; concentration not given, corrected by standard peak, unit not given; reference: biotin control resin, higher = stronger binding).
`galanin` has a conversion of 21.4% (rebH (Lentzea aerocolonigenes, UniProt Q8KHZ8, A442V/K145M/M71V/N467T/N470S/S2P); substrate, HPLC).
`FGA (Homo sapiens, UniProt P02671)`: cross-linked residues “K463 to K99” (NOP58 (Homo sapiens, UniProt Q9Y2X3); cross-linking MS; with: DSSO).
For `ITDFGRAKL`, “HLA class I surface increase” read 0.1% (HLA class I histocompatibility antigen, A alpha chain, allele A*02:01 (Homo sapiens, UniProt P04439); MHC class I stabilisation, flow cytometry; peptide, TAP2-knockout TISI monoallelic cells; 25 µM, 18 h, 37 °C, with: β2-microglobulin 3 µg/mL; reference: DMSO).
`STIM1` gave a Kd of 2600 nM (ERO1-like protein alpha (Homo sapiens, UniProt Q96HE7); bio-layer interferometry).
`GFGLATVKSR` — result for “HLA class I surface increase”: -0.5% (HLA class I histocompatibility antigen, A alpha chain allele A*33:03; MHC class I stabilisation, flow cytometry; peptide, TAP2-knockout TISI monoallelic cells; 25 µM, 18 h, 37 °C, with: β2-microglobulin 3 µg/mL; reference: DMSO).
`LPPGAVPPGAHFDPFGPIGT (PI31(232–251) R242H)`: inhibition “decreased” (Proteasome subunit beta type-3/PSMB7 (Homo sapiens, UniProt P49720+Q99436); trypsin-like activity, inhibitor; peptide, human constitutive proteasome; 10 nM, with: Boc-LRR-AMC).
Under “HLA class I surface increase”, `QHVKITDFGR` is recorded as 25.4% (HLA class I histocompatibility antigen, A alpha chain allele A*33:03; MHC class I stabilisation, flow cytometry; peptide, TAP2-knockout TISI monoallelic cells; 25 µM, 18 h, 37 °C, with: β2-microglobulin 3 µg/mL; reference: DMSO).
For `MIP-1alpha`, the Hill coefficient was 0.7 (CCR1; radioligand binding, agonist; reference compound).
The Kd of `daratumumab` is reported as 0.72 nM (CD38 (Homo sapiens, UniProt P28907); binding, ELISA).
With `sacituzumab` the Kd was 0.329 nM (Tumor-associated calcium signal transducer 2 (TACSTD2, Homo sapiens, UniProt P09758); binding, bio-layer interferometry).
`MIP-1α` gave an IC50 of 0.082 nM (CCR1; binding, agonist radioligand displacement).
The Kd of `Pentraxin 3` is reported as 434 nM (Ly96 (Mus musculus, UniProt Q9JHF9); binding, fluorescence titration; pH 7.4, 25 °C, with: BODIPY FL-labelled alarmin).
`TRRRFLSESDEL (TLE6(133-144))` — result for Kd: “not detected” (Ywhag; binding, isothermal titration calorimetry; peptide; pH 7.5, 25 °C).
For `colistin`, the MIC was ≤ 1 µg/mL (Pseudomonas aeruginosa; clinical isolate RKI 40/14).
With `HMGB1` the Kd was 236 nM (Advanced glycosylation end product-specific receptor (Ager, Mus musculus, UniProt Q62151); binding, fluorescence titration; pH 7.4, 25 °C, with: BODIPY FL-labelled alarmin).
`Peginesatide` has a phosphorylation level of 9.3 fold (UT7/EPO; tyrosine phosphorylation, LC-MS/MS phosphoproteomics, GluC, refers to: FCGR2A tyrosine 288; 10 nM, 15 min, with: 10 U/mL EPO; reference: vehicle).
For `GGWVEKETYY`, “normalised SPR binding response” read 0 normalised RU (human MAGI1-3/6 PDZ construct (MBP fusion); surface plasmon resonance; peptide; concentration not given; higher = stronger binding).
`QPRHRNSLSDSA (TLE6(203–214) peptide)`: Kd “not detected” (Ywhag; binding, isothermal titration calorimetry; peptide; pH 7.5, 25 °C).

A few entries again:
For `colistin`, the MIC was ≤ 1 µg/mL (Pseudomonas aeruginosa; clinical isolate RKI 40/14).
`Peginesatide` has a phosphorylation level of 9.3 fold (UT7/EPO; tyrosine phosphorylation, LC-MS/MS phosphoproteomics, GluC, refers to: FCGR2A tyrosine 288; 10 nM, 15 min, with: 10 U/mL EPO; reference: vehicle).
